# Assay results gathered from unrelated publications.
# Every numbered part comes from another study and shows a few of its results, in no order.

# Block 1
# Target: Prothrombin, mature alpha-thrombin (F2, Homo sapiens, UniProt P00734)
# Technique: aptamer microarray, sandwich
# Form: DNA with 2'F-ANA
# Medium: in vitro
# Concentration: 200 nM
# Setting: whole 15-mer aptamer, many near background
# With: Cy3 exosite-II aptamer, 400 nM
# Direction: higher = stronger binding
# Sequence: GGTTGGTGTGGTTGG
Modification,mean fluorescence intensity
2'F-ANA at 3 5 6 7 12 13 14,54.3 a.u.
2'F-ANA at 1 3 4 6 7 9 15,178 a.u.
2'F-ANA at 1 3 4 5 7 8 11 14,48.9 a.u.
2'F-ANA at 1 4 8 11 12 13,219 a.u.
2'F-ANA at 1 11 12,365 a.u.
2'F-ANA at 1 6 7 10 11 13 14,57.5 a.u.
2'F-ANA at 2 5 7 8 9 13 15,74.8 a.u.

# Block 2
# Target: Histone acetyltransferase KAT6A, both winged helices, GST fusion (KAT6A, Homo sapiens, UniProt Q92794, residues 1-181)
# Technique: protein binding microarray
# Form: double-stranded DNA, one strand shown
# Medium: in vitro
# Concentration: not given
# Setting: 8-mer, flanks averaged, mean of 2 arrays, mostly near background
# Reference: not given
# Direction: higher = stronger binding
# Construct (chain): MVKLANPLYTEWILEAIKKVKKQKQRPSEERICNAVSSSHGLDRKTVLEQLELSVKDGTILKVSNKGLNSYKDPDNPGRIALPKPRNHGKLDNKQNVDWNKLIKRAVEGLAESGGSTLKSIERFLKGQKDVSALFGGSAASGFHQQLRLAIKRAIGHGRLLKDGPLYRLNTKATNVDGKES
Sequence,E-score
ATTAGTGC,-0.0652
ACCGTGAT,0.0949
GACTTCCA,-0.15
CACCGAAG,-0.00515
CGCAGTAC,0.0661
ACGAAATA,-0.106

# Block 3
# Target: Interferon regulatory factor 7, full length, phosphomimetic (IRF7, Homo sapiens, UniProt Q92985, residues 1-503, S471D/S472D/S475D/S476D/S477D/S483D/S484D/S487D)
# Technique: protein-binding microarray
# Form: double-stranded DNA, one strand shown
# Medium: in vitro
# Concentration: 2200 nM top
# Setting: 60-bp whole probe
# With: salmon DNA 0.4 mg/ml
# Reference: random background probes
# Direction: higher = stronger binding
# Constant ends, left off below: GCCTAGCAC … GTCTTGATTCGCTTGACGCTGCTG
# Construct (chain): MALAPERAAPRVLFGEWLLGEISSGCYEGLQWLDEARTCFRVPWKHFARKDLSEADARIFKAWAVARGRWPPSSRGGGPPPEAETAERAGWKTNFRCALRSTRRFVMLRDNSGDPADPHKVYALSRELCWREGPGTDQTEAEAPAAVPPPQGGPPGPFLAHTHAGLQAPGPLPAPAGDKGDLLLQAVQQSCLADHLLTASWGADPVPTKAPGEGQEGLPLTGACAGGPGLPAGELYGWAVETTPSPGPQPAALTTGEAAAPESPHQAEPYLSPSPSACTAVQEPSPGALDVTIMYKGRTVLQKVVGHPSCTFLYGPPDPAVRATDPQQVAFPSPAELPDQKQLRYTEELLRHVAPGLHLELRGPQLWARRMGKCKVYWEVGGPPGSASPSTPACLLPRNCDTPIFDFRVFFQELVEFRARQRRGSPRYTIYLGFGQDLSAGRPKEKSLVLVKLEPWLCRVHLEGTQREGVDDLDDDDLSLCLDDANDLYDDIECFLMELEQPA
Sequence,fitted relative affinity [z-score]
TTAGGTTCCAGTTTCGATTAGTGCTAG,6.74
GACCGTTTCCTTCTCCTGACGTGCTAG,2.82
GACGGTTACCTTCTCCTGACGTGCTAG,1.16
TTACGTTTCGGGACTGGGTTAGTGCTA,4.71
GACGGTCTCCTTTTCCTGATGTGCTAG,1.55
TTAGATAACGGGACTGGATTAGTGCTA,-0.609
AACGGTCTCGGTATCGGGACGTGCTAG,0.376

# Mixed results
Substance,target,assay,system,setting,how to read,endpoint,result
"PhoQ, residues 284 288 289 292 302 303 AAQSYM","PhoP, residues 12 14 15 18 19 NQGLL (Escherichia coli, UniProt P23836)","Sort-seq, item: YFP reporter",E. coli,"PhoQ-PhoP variant library, with: 10 µM Mg2+","reference: high Mg2+ state, higher = stronger signaling",fold induction,3.64

# Repeated from above (block 3):
Sequence,fitted relative affinity [z-score]
TTACGTTTCGGGACTGGGTTAGTGCTA,4.71
